# Measurements from different studies.
# Each line is one published result; not all experiments were run side by side. Numbers after ± are the reported error.
# cqsS: CAI-1 autoinducer sensor kinase/phosphatase CqsS (cqsS, Vibrio cholerae serotype O1, UniProt Q9KM66)
# CNR1: Cannabinoid receptor 1 (CNR1, Homo sapiens, UniProt P21554)
# UniProt P21554, sequence (whole entry, looked up): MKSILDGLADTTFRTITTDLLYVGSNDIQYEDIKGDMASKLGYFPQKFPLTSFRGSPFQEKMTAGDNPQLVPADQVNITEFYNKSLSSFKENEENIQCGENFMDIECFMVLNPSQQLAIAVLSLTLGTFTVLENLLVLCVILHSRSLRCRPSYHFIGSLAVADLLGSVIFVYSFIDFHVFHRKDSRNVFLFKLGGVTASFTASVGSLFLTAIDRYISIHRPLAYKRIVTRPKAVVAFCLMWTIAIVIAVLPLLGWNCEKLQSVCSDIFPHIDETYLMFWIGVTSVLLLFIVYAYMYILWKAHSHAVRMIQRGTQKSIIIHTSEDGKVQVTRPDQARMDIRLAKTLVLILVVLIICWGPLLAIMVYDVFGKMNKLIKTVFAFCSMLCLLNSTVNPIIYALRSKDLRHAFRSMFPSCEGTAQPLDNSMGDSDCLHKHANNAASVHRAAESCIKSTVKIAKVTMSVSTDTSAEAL
# UniProt P23975, sequence (whole entry, looked up): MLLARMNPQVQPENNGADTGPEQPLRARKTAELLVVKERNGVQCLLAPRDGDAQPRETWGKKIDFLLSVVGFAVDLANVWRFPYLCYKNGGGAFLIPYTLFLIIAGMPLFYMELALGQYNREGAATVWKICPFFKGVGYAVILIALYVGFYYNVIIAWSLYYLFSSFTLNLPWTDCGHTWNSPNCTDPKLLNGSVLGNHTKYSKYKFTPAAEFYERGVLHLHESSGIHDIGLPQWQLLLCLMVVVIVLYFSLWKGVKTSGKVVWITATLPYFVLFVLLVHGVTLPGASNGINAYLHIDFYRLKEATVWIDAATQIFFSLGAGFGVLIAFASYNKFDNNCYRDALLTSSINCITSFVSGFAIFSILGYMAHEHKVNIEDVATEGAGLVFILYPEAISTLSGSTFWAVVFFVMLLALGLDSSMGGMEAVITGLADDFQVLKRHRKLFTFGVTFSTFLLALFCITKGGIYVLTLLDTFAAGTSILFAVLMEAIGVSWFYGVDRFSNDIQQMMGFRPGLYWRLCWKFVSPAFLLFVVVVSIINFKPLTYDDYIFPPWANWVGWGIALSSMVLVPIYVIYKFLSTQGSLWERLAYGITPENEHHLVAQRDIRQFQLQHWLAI
# UniProt P46098, sequence (whole entry, looked up): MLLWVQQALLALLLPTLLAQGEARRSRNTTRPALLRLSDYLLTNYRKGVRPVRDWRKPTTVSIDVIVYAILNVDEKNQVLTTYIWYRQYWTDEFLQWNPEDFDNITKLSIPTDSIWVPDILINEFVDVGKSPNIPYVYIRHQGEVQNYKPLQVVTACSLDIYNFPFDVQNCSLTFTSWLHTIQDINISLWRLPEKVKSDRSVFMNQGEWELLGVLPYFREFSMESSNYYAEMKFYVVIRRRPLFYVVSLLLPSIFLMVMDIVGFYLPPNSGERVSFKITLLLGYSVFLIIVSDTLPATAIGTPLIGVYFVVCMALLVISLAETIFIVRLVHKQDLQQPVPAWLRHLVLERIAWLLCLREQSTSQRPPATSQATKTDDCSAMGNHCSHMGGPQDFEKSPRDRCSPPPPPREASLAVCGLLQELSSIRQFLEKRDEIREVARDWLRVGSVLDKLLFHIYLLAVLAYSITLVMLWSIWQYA
# UniProt P07148, sequence (whole entry, looked up): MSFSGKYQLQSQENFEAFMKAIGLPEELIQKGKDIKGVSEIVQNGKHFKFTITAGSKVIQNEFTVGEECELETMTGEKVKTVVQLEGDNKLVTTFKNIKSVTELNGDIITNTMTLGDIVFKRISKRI
# UniProt Q13546, sequence (whole entry, looked up): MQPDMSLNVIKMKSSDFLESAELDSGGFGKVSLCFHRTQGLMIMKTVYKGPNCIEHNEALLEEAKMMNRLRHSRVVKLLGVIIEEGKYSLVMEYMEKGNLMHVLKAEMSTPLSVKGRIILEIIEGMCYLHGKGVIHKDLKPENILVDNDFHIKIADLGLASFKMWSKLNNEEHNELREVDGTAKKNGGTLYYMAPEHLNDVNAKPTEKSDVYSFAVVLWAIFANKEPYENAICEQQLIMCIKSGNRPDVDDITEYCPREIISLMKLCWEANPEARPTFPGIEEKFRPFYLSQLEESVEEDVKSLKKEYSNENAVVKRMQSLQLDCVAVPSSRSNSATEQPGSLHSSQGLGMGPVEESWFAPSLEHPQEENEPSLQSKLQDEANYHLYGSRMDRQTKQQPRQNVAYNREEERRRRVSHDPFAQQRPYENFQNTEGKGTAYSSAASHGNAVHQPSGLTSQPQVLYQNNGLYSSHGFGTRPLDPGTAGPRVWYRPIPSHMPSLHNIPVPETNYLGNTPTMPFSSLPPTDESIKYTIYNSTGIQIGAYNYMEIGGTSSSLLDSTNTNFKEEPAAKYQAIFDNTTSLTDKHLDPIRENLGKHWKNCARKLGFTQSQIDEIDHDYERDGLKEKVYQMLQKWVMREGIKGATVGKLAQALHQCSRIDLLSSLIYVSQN
# UniProt P07550, sequence (whole entry, unmodified, looked up): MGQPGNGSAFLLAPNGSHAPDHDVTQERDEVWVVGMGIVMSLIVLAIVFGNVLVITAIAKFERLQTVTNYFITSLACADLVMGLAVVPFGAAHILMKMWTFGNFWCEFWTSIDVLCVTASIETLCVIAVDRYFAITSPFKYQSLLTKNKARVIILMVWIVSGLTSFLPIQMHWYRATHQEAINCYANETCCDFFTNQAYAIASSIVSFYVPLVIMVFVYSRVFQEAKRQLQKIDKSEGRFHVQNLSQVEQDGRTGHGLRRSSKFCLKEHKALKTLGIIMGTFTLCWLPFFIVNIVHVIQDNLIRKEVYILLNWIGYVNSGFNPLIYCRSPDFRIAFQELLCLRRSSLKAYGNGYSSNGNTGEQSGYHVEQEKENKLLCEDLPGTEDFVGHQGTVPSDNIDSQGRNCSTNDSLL
# UniProt Q9ULT6, sequence (whole entry, looked up): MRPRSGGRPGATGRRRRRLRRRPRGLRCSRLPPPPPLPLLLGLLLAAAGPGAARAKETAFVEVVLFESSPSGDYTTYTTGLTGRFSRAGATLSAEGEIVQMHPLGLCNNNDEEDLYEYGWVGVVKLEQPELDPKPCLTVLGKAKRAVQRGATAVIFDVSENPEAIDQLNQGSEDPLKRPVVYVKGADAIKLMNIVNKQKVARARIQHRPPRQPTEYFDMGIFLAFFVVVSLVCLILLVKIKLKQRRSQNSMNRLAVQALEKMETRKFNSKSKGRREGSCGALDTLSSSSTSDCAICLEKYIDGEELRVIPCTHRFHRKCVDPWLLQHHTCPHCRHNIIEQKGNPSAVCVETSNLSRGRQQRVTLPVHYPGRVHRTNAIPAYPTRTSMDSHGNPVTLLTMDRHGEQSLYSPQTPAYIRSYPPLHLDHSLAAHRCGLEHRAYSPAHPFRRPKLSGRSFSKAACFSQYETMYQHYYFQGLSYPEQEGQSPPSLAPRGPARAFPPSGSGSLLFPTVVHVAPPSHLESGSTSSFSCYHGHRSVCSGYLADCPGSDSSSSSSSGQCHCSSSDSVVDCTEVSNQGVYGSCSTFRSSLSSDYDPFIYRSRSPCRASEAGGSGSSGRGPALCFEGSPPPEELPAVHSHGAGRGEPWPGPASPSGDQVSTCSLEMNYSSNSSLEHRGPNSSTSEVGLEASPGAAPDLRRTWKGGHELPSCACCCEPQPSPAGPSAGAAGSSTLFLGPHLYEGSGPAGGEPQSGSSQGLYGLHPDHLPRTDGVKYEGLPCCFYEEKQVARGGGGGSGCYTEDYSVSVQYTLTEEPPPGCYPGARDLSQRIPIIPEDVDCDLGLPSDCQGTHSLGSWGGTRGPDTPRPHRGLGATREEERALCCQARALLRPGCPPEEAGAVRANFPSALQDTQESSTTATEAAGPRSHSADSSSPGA
# UniProt Q9BYF1, sequence (whole entry, looked up): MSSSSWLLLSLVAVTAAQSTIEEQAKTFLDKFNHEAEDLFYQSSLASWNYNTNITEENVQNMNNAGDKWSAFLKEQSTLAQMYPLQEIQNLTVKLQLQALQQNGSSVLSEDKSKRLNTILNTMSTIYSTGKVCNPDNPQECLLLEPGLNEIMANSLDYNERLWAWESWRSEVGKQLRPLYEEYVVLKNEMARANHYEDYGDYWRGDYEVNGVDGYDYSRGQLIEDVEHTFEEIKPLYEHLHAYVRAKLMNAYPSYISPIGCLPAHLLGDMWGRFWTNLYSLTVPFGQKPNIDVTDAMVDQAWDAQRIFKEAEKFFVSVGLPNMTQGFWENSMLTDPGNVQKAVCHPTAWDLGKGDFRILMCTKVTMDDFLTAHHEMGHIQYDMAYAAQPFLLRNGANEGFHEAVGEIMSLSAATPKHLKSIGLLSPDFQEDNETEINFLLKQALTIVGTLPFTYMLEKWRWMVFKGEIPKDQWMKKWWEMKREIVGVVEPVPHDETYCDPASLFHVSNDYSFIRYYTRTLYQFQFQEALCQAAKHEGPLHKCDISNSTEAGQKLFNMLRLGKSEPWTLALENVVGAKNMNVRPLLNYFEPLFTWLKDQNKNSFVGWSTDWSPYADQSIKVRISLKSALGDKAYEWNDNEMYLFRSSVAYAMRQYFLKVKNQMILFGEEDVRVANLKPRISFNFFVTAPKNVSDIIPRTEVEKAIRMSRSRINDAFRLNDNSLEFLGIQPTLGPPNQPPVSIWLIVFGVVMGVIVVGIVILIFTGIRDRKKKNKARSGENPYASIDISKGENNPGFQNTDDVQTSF
# UniProt Q0P543, sequence (whole entry, looked up): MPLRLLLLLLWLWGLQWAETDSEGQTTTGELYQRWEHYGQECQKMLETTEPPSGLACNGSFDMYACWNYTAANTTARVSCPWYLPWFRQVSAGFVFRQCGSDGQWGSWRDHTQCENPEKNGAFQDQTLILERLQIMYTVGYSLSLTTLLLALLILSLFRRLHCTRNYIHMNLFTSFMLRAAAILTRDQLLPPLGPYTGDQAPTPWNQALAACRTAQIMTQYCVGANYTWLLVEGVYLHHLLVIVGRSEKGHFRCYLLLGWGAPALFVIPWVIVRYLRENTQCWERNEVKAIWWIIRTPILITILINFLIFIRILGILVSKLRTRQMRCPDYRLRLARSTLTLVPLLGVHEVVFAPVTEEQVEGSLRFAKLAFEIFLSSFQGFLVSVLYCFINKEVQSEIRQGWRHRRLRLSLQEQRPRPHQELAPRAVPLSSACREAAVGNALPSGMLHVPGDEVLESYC
SMILES,target,assay,system,setting,measurement,result
CC1=CC(C)=[N+]2C1=Cc1ccc(CCC(=O)NCCOCCOCCOCCOCC(=O)N[C@H](C(=O)N3C[C@H](O)C[C@H]3C(=O)NCc3ccc(-c4scnc4C)cc3)C(C)(C)C)n1[B-]2(F)F,"von Hippel-Lindau disease tumor suppressor, with elongin B/C (VHL, Homo sapiens, UniProt P40337)","binding, TR-FRET",,"210 min, together with: BODIPY FL VH032",Kd,2.96 nM
C/C=C(\N)C(=O)CCCCCCCCC,cqsS,agonist,"Vibrio cholerae, wild type",,EC50,4 ± 3 nM
CCCCCc1cc(O)c2c(c1)OC(C)(C)[C@@H]1CCC(CO)=C[C@@H]21,"FABP1 (Homo sapiens, UniProt P07148)","ligand displacement, fluorescence",,,EC50,1500 nM
O=C(N[C@@H]1CN(CCCc2ccccc2)C[C@H]1CO)c1ccccc1,"Outer membrane protein OmpV (ompV, Vibrio cholerae serotype O1, UniProt P06111)",,,,Kd,123 nM
CC(=O)Oc1cccc2[nH]cc(CC[N+](C)(C)C)c12,"HTR3A (Homo sapiens, UniProt P46098)","ligand displacement, radioligand",,cell membranes,Ki,> 10000 nM
CC[C@H](C)[C@@H]1NC(=O)[C@@H]2CCCN2C(=O)[C@H](CCCNC(=N)N)NC(=O)[C@H](CCC(=O)O)NC(=O)[C@@H]2CSSC[C@@H]3NC(=O)[C@H](CCCCN)NC(=O)[C@H](CCCCN)NC(=O)[C@H](CC(N)=O)NC(=O)[C@H](CC(C)C)NC(=O)[C@H](CCCNC(=N)N)NC(=O)[C@H](CC(N)=O)NC(=O)[C@@H](NC(=O)CN)CSSC[C@H](NC(=O)[C@H](CSSC[C@@H](C(=O)N[C@@H](CCCNC(=N)N)C(=O)N4CCC[C@H]4C(=O)N[C@@H](CC(=O)O)C(=O)N[C@H](C(=O)NCC(=O)N4CCC[C@H]4C(=O)O)C(C)C)NC(=O)[C@H](Cc4ccc(O)cc4)NC(=O)[C@H](CCSC)NC(=O)[C@H](Cc4ccc(N=[N+]=[N-])cc4)NC(=O)[C@H](CCCCN)NC(=O)[C@H](Cc4c[nH]c5ccccc45)NC(=O)CNC1=O)NC(=O)[C@H](CC(=O)O)NC(=O)[C@H](C)NC(=O)[C@H](CC(=O)O)NC(=O)[C@H](CO)NC(=O)[C@H](CC(N)=O)NC3=O)C(=O)N[C@@H](C)C(=O)N[C@@H](CC(N)=O)C(=O)N[C@@H](CCCCN)C(=O)N[C@@H](CCC(=O)O)C(=O)N[C@@H](CCCCN)C(=O)N2,"E3 ubiquitin-protein ligase ZNRF3 (ZNRF3, Homo sapiens, UniProt Q9ULT6)",binding,,pH 7.4,Kd,326 ± 19 nM
N#Cc1c(N)nc(SCc2ncc[nH]2)c(C#N)c1-c1ccc(O)cc1,"ADORA2A (Homo sapiens, UniProt P29274)",binding,,,Ki,13 nM
CC1=CC(C)=[N+]2C1=Cc1ccc(CCC(=O)NCCCn3cc(-c4ccc5c(c4)CCN5C(=O)Cc4cccc(OC(F)(F)F)c4)c4c(N)ncnc43)n1[B-]2(F)F,"RIPK1 (Homo sapiens, UniProt Q13546)","binding, TR-FRET",,,Kd,608 nM
"CCOC(=O)C1C(OC(c2ccc(Cl)cc2)c2ccc(Cl)cc2)CC2CCC1N2C (single isomer, unassigned)","CHRM3 (Homo sapiens, UniProt P20309)","ligand displacement, radioligand",,,Ki,1920 nM
Cc1cc(O)cc(-c2nc(Nc3cc(C(F)(F)F)cc(C(F)(F)F)c3)ncc2-c2ccnc(-c3ccc(C#N)cc3)c2)c1,"SRC (Homo sapiens, UniProt P12931)",biochemical,,,EC50,> 100000 nM
Nc1ncnc2c1ncn2[C@@H]1O[C@H](COP(=O)(O)OP(=O)(O)OP(=O)(O)O)[C@@H](O)[C@H]1O,"ATP phosphoribosyltransferase (Mycobacterium tuberculosis, UniProt P9WMN1)",pre-steady-state stopped-flow,,"pH 8.5, together with: PRPP 1.5 mM",Kd,47200 ± 10300 nM
C=C[C@]1(C)CC[C@@]2(C)c3cc(O)c(O)c(C)c3CC[C@@H]2C1,"glmU (Mycobacterium tuberculosis, UniProt P9WMN3)",surface plasmon resonance,,,Kd,15700 nM
CCCCCn1cc(C(=O)c2cccc3c2CC(C)(C)C3)c2ccccc21,CNR1,"G protein activation, agonist, BRET",,,EC50,69.2 nM
CC(Cc1ccc(O)cc1)NCC(O)c1ccc(O)c(O)c1 (stereo not shown),"Beta-2 adrenergic receptor, V2R C-tail chimera (ADRB2, Homo sapiens, UniProt P07550)",agonist,,concentration not given,EC50,10 nM
Fc1ccccc1CCNCc1cccc(Cl)c1Cl,"SLC6A2 (Homo sapiens, UniProt P23975)","ligand displacement in cells, radioligand",,,Ki,841 nM
CCCCCn1cc(C(=O)c2ccc3ccccc3c2)c2ccccc21,CNR1,"β-arrestin recruitment, agonist, BRET",,,EC50,372 nM
CSCC[C@@H](C=O)NC(=O)[C@H](CC(C)C)NC(=O)[C@H](CC(C)C)NC(C)=O,"Replicase polyprotein 1ab, main protease (Human coronavirus OC43, UniProt P0C6X6)","enzyme activity, inhibitor",,,Ki,230 nM
CC1=C[C@H]2c3c(O)cc(CCc4ccccc4)cc3OC(C)(C)[C@H]2CC1,"CNR2 (Homo sapiens, UniProt P34972)","ligand displacement, radioligand",,cell membranes,Ki,225 nM
CC[C@H](C)[C@H](NC(=O)[C@H](CO)NC(=O)[C@H](Cc1ccc(O)cc1)NC(=O)[C@H](CC(=O)O)NC(=O)[C@H](CO)NC(=O)[C@@H](NC(=O)[C@H](Cc1ccccc1)NC(=O)[C@@H](NC(=O)CNC(=O)[C@@H]1CCCN1C(=O)[C@H](C)NC(=O)[C@@H](N)Cc1ccc(O)cc1)[C@@H](C)O)[C@@H](C)CC)C(=O)N[C@@H](C)C(=O)N[C@@H](CCSC)C(=O)N[C@@H](CC(=O)O)C(=O)N[C@@H](CCCCN)C(=O)N[C@H](C(=O)N[C@@H](Cc1c[nH]cn1)C(=O)N[C@@H](CCC(N)=O)C(=O)N[C@@H](CCC(N)=O)C(=O)N[C@@H](CC(=O)O)C(=O)N[C@@H](Cc1ccccc1)C(=O)N[C@H](C(=O)N[C@@H](CC(N)=O)C(=O)N[C@@H](Cc1c[nH]c2ccccc12)C(=O)N[C@@H](CC(C)C)C(=O)N[C@@H](CC(C)C)C(=O)N[C@@H](C)C(=O)N[C@@H](CCC(N)=O)C(=O)N[C@@H](CCCCN)C(=O)NCC(=O)N[C@@H](CCCCN)C(=O)N[C@@H](CCCCN)C(=O)N[C@@H](CC(N)=O)C(=O)N[C@@H](CC(=O)O)C(=O)N[C@@H](Cc1c[nH]c2ccccc12)C(=O)N[C@@H](CCCCN)C(=O)N[C@@H](Cc1c[nH]cn1)C(=O)N[C@@H](CC(N)=O)C(=O)N[C@H](C(=O)N[C@H](C(=O)N[C@@H](CCC(N)=O)C(=O)O)[C@@H](C)O)[C@@H](C)CC)C(C)C)[C@@H](C)CC,"Gastric inhibitory polypeptide receptor (Mus musculus, UniProt Q0P543)",agonist,,,EC50,92 nM
C/C=C(\N)C(=O)CCCCCCCC,cqsS,"bioluminescence, agonist",Vibrio cholerae,,EC50,2.6 nM
CC12CCC3C(CC=C4CC(O)CCC43C)C1CCC2=O (stereo not shown),"Steroid Delta-isomerase (Pseudomonas putida, UniProt P07445, D40N)",tryptophan fluorescence quenching,,10% DMSO,Kd,300 nM
CCCCCCc1ccc(Oc2ccccc2Br)c(O)c1,"inhA (Mycobacterium tuberculosis, UniProt P9WGR1)","inhibitor, progress curve analysis",,"20 °C, final EI* complex",Ki,34 ± 1 nM
C#CCOc1ccccc1-c1nc2ccc(Cl)cc2c(=O)o1,"Serine protease Rv3671c (Mycobacterium tuberculosis, UniProt P9WHR9)",,,,Ki,262 nM
CC1(C)OC2OC(C(CCO)NC(=O)Nc3cccc(NC(=O)NC(CCO)C4OC5OC(C)(C)OC5C4OCc4ccccc4)c3)C(OCc3ccccc3)C2O1 (stereo not shown),"DNA ligase A (Mycobacterium tuberculosis, UniProt P9WNV1)","enzyme activity, inhibitor",,,Ki,98300 nM
CC[C@H](C)[C@H](NC(=O)CNC(=O)[C@@H](NC(=O)[C@@H](N)[C@@H](C)O)[C@@H](C)O)C(=O)NCC(=O)N[C@@H](Cc1ccc(O)cc1)C(=O)N[C@@H](CCC(N)=O)C(=O)N1CCC[C@H]1C(=O)N[C@@H](Cc1ccc(O)cc1)C(=O)N[C@@H](CCCNC(=N)N)C(=O)N[C@H](C(=O)N[C@H](C(N)=O)C(C)C)C(C)C,"ACE2 (Homo sapiens, UniProt Q9BYF1)",,,,Kd,672000 ± 168000 nM
